Measurements of several laboratories.
Parts stem from different laboratories: compare values within a part only. Changes are numbered by the printed parent chain.

Block 1
Target: Hepatocyte nuclear factor 3-alpha (Foxa1, Mus musculus, UniProt P35582, residues 1-468, full length assumed)
Sequence of UniProt P35582 (whole entry, looked up): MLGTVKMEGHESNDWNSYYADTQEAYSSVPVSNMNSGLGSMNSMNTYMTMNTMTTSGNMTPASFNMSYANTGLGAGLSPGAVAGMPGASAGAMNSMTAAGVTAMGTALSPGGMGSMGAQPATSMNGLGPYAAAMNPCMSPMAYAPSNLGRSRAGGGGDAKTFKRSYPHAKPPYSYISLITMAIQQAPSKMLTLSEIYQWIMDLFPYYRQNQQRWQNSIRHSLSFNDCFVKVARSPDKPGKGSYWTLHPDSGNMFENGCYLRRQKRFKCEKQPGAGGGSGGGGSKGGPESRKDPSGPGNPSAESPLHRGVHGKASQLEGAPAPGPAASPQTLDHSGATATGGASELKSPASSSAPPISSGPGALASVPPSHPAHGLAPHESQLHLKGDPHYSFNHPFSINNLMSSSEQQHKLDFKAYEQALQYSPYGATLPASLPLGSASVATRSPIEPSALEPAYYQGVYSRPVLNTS
Method: EMSA with sequencing
Form: double-stranded DNA, one strand shown
Sample: in vitro
Concentration: 10 and 20 nM
Notes: whole designed probe, mean of two concentrations, ends assumed
Baseline: negative control set to 0
Reading: higher = stronger binding
Shared flanks, not repeated: GTGAGCGGTGCCCATTGATGGGGAAC … TTTCACTGGGATCGTGGGGAC
Strand | normalised bound fraction [ratio]
GCAAATGGAGGGTGAAAAAGTCAGATTTTAGATCAGAGAATGTCATACCCTGAAATCAGCATGTTCTTAGTAGGGACATAAAATGGGGTTGTAAGATGACACAGACTGAGAGTAGCTCAAAGTTCAGGAGCCTGAGGGAGAAAGATAAACTTAAGTAAAGTTTGATTAAGAAATATTTTATTTTAGGCTGAGC | 0.0392
TCCAGAAGGTCATATAAGTGAAATCACACAGTAGCTAGCCTTTTGAATAAGGTTCCTTTCACTTAGCTTAGTGCATTTGAGATTCATCCACACTGTTGACTCATCCATGGTTTGTTCCTTTTTATTGCTGAGTAGTAGTTGATTGTATGGTTGTGCCACCATGCCCATTCATTCACCAGCTGAAGAATACTCG | 0.0363
ACATTCTTATAACCTATATGACATTATATTAAATTCCATTTAAAACCGTAGCATAAGAAGCATTGTATCTGGCACAAAAATACAAAGGGATTTAGATTACTGAGAGACAAGATAAACTATATACTAGAACTAAAAGCTCTATAAAATATTTAATGAAAAATTCTGTAGTAATTTTATGTGAGGTTTTTTAAAC | 0.0387
CACGGGCTCTGCTGCTCAGGAAGAATAAAATACAGAAAAATCTCATCTCTGTTGGTAGTTTTGGCTTCCTTATCCCATCACTTTCAACCACCCATGTTTACATAAGGCCACACTGCTGGGCTGGAATGCCTAGCTGTGGCCCCTCTCAAGACAACATGATAAACAGAGCATTTGCTCCAAGTTGAACAACAAG | 0.501
ACTCAAATTCACTTGGGACTGATGGTTTCATTTCTCTTCTCCCACACTAGGTGGCCAGACCAGCAAGACTTAAGCTTTGTTTAACTTGTCAATGTTTACAGAAGTGCAGGTTGCCAAAATTCTCTCTGCACCCTGACTCCCACTCCCTTTTTTAATTTTTTATTTTATTTTTTGAAATGGAGTCTTGCTCTGT | 0.377

Block 2
Target: Sal-like protein 4, full length isoform A (SALL4, Homo sapiens, UniProt Q9UJQ4, residues 1-1053)
Sequence of UniProt Q9UJQ4 (whole entry, looked up): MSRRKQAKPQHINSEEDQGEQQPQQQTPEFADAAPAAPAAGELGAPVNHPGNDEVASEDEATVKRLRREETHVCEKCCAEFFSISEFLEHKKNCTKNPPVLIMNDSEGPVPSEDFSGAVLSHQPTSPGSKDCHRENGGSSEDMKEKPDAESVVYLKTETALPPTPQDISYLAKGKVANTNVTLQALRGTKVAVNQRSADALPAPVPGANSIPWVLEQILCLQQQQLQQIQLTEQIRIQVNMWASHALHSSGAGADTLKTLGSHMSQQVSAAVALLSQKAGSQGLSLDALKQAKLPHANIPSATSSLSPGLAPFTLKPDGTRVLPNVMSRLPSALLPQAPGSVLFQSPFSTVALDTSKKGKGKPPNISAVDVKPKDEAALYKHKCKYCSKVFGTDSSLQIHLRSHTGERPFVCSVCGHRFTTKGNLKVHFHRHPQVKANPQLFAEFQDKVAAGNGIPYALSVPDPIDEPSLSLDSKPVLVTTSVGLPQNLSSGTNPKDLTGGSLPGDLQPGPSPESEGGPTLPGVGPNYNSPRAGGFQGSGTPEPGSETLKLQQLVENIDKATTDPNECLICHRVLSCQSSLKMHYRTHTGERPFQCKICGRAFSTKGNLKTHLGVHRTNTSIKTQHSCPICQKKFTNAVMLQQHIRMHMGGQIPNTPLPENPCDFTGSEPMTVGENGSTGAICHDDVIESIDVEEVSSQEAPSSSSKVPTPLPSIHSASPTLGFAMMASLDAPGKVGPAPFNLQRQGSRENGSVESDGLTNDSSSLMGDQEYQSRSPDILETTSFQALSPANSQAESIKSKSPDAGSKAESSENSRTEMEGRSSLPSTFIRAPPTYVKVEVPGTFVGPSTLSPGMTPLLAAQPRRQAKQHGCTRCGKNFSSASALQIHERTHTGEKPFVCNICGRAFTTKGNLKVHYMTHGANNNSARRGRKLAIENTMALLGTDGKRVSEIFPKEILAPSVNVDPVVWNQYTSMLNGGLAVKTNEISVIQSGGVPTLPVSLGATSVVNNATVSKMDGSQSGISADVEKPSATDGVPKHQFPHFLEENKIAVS
Method: universal PBM
Form: double-stranded DNA, one strand shown
Sample: in vitro
Concentration: 600 nM
Notes: 8-mer, flanks averaged, mean of replicates
Reading: higher = stronger binding
Strand | E-score
GGCGGGCA | -0.198
CAAGGTAA | 0.113
CAGCCCGG | -0.29
ATTGAACG | 0.226
TCTCGCCA | -0.15
CCGATGAG | -0.111
CGACATGA | -0.0186
AATTCCGA | 0.0959
CTGTAGTA | 0.254
AAGTCGCT | -0.0947
AAGCACTC | -0.109
CGTGAACA | -0.0918
ATATAGTC | 0.336
AATGGTAA | 0.23
CCAGTGAA | -0.0229
ACCACGTC | -0.15

Block 3
Target: Fragile X messenger ribonucleoprotein 1, C-terminal low-complexity region (Fmr1, Mus musculus, UniProt P35922)
Method: RNA Bind-n-Seq
Form: RNA
Sample: in vitro
Concentration: 200 nM
Notes: whole 134-nt RNA, ends assumed
Added: 150 mM LiCl
Baseline: input library
Reading: higher = stronger binding
Library: 7-deaza-guanosine replaces G
Shared flanks, not repeated: GGGAGUUCUACAGUCCGACGAUC … UGGAAUUCUCGGGUGUCAAGG
Strand | log2 enrichment
AGUCCUGUGCUACACAUCGUAUGUACCGAAUCGGGGAAAAAGGGGUUUGGGGUGGGGAAAGUAUUAUGUUACGCCGUUCGGAUCUGCACU | -1
AGUCCUGUGCUACACAUCGUAUGUACCGAAUCGGGUUUUUUUGGGUUUUUGGGUGGGAAAGUAUUAUGUUACGCCGUUCGGAUCUGCACU | -1.47
UUAAGGGAAUCUAUUGCUGAACACAAACCUCAUAUUGACAAACUACUAAAGAUAGGCCCACAACUAAAGGAAUUAAACCCUGAGGAAGGG | 0.277
UUUUCAAGGGCCGCUUGAAGAUGCCAUUGAAGAUGAGGAAGAAGAAUGUCCAUCAGAGGAAACAGACAUCAUCUCCAAAGGAGACUUUCC | -2.1
AGUCCUGUGCUACACAUCGUAUGUACCGAAUCGGGUUUUUGGGUUUUUUUGGGUGGGAAAGUAUUAUGUUACGCCGUUCGGAUCUGCACU | -1.31
AAGGCACGUAAGUUUAAGCUUUUUUUUUUUUUAAGUUAAUGGGAAAAAUUUGAGACGCAAUACCAAUACUUAGGAUUUUGGUCUUGGUGU | 0.428
GUCCUGUGCUACACAUCGUAUGUACCGAAUCGGGGAGGGGAAAAAGGGGUUUUUGGGGAAAGUAUUAUGUUACGCCGUUCGGAUCUGCAC | 0.19
UUUUGCAUUUAGGGUUUUAACCAAGAAGAUCUGGAAGAAGAAAAAGGUGAAACACAGGUAAAAGAAGCAGAAGAUUCAGAUUCUGAUGAU | -3.45

Block 4
Target: CCNB1, cyclin fold, Cln2 fusion (human)
Method: yeast growth competition, sequencing
Sample: yeast
Notes: strong parent motif
Baseline: not given
Reading: higher = stronger binding
Parent: PKMYT1 docking peptide (human); SFEPRNLLSLFED; partner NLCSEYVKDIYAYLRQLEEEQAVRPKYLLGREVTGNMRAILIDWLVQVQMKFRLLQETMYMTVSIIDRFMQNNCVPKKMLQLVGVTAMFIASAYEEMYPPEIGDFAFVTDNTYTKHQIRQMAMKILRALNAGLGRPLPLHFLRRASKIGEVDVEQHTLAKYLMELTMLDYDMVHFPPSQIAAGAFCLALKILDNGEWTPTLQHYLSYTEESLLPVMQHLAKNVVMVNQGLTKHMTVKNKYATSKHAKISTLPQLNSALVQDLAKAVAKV
Variant | normalised enrichment score
SFEPRNLSSLFED [L8S] | 0.396
GFEPRNLLSLFED [S1G] | 1.91
SFEPSNLLSLFED [R5S] | 0.413
SFEPRNLLSLFGD [E12G] | -0.137
SFEPRNLESLFED [L8E] | -2.52
SFEPRNLLSLFEP [D13P] | 0.972
FFEPRNLLSLFED [S1F] | 2.02
SFEPRNLLNLFED [S9N] | 1.45
SFGPRNLLSLFED [E3G] | -0.154
SFNPRNLLSLFED [E3N] | -0.303
SFEPRNLLSLSED [F11S] | 0.605
SFVPRNLLSLFED [E3V] | 2.34
SFEMRNLLSLFED [P4M] | 0.517
SFEPRNLLWLFED [S9W] | 1.06
SFEPRNLISLFED [L8I] | 0.725
SFYPRNLLSLFED [E3Y] | 1.96
SFEPRNLLYLFED [S9Y] | 1.71
SFEPRNLLILFED [S9I] | 0.679
SGEPRNLLSLFED [F2G] | -0.0172
SFEPRNLLSLPED [F11P] | 0.107
SLEPRNLLSLFED [F2L] | 0.715
SFEPRNLLSLFRD [E12R] | 0.225
SFEPRNLLSLKED [F11K] | 0.489
SFEPRNLLSLFEF [D13F] | 1.12
SFEWRNLLSLFED [P4W] | 0.162
